{"data": "Published values collected from several papers", "note": "Each line is one published result; not all experiments were run side by side. Numbers after ± are the reported error."}
{"SMILES": "CCCC[C@H](NC(=O)CNC(=O)CNC(=O)c1ccc(NN)nc1)C(=O)N[C@H]1CC(=O)NCCCC[C@@H](C(N)=O)NC(=O)[C@H](Cc2c[nH]c3ccccc23)NC(=O)[C@H](CCCNC(=N)N)NC(=O)[C@@H](Cc2ccccc2)NC(=O)[C@H](Cc2c[nH]cn2)NC1=O [technetium-99m labelled]", "test system": "C57 mouse, B16/F1 melanoma", "setting": "2 h, added: L-lysine", "scale": "baseline: tumour over liver", "measurement": "uptake ratio", "value": 40.3}
{"SMILES": "N=C(N)NCCC[C@@H]1NC(=O)[C@H](CCCCNC(=O)CNC(=O)CNC(=O)CNC(=O)CC[C@H](NC(=O)CCOCCOCCOCCOCCNC(=O)CC[C@H](NC(=O)CN2CCN(CC(=O)O)CCN(CC(=O)O)CCN(CC(=O)O)CC2)C(=O)NCCOCCOCCOCCOCCC(=O)N[C@@H](CCC(=O)NCC(=O)NCC(=O)NCC(=O)NCCCC[C@@H]2NC(=O)[C@@H](Cc3ccccc3)NC(=O)[C@H](CC(=O)O)NC(=O)CNC(=O)[C@H](CCCNC(=N)N)NC2=O)C(=O)NCC(=O)NCC(=O)NCC(=O)NCCCC[C@@H]2NC(=O)[C@@H](Cc3ccccc3)NC(=O)[C@H](CC(=O)O)NC(=O)CNC(=O)[C@H](CCCNC(=N)N)NC2=O)C(=O)NCC(=O)NCC(=O)NCC(=O)NCCCC[C@@H]2NC(=O)[C@@H](Cc3ccccc3)NC(=O)[C@H](CC(=O)O)NC(=O)CNC(=O)[C@H](CCCNC(=N)N)NC2=O)NC(=O)[C@@H](Cc2ccccc2)NC(=O)[C@H](CC(=O)O)NC(=O)CNC1=O [indium-111 labelled]", "test system": "athymic nude mice, female, U-87 MG glioma xenograft, tumour and lungs", "setting": "intravenous, 24 h", "scale": "baseline: tumour over lungs", "measurement": "tumour to tissue ratio", "value": "5.59 ± 0.63"}
{"SMILES": "N=C(N)NCCC[C@@H]1NC(=O)[C@H](CCCCNC(=O)CCc2cn(CCC[C@@H]3O[C@H](COC(=O)NCCNC(=O)CN4CCN(CC(=O)O)CCN(CC(=O)O)CCN(CC(=O)O)CC4)[C@@H](O)[C@H](O)[C@H]3O)nn2)NC(=O)[C@@H](Cc2ccccc2)NC(=O)[C@H](CC(=O)O)NC(=O)CNC1=O [gallium-68 labelled]", "test": "PET", "test system": "female NMRI nu/nu mice, U-87 MG xenograft, normal brain", "setting": "intravenous, 10 MBq, hour 2 of recording", "measurement": "SUVmean", "value": "0.06 ± 0.01 SUV"}
{"SMILES": "CCCC[C@H](NC(=O)CCCCCCCNC(=O)c1ccc(NN)nc1)C(=O)N[C@H]1CC(=O)NCCCC[C@@H](C(N)=O)NC(=O)[C@H](Cc2c[nH]c3ccccc23)NC(=O)[C@H](CCCNC(=N)N)NC(=O)[C@@H](Cc2ccccc2)NC(=O)[C@H](Cc2c[nH]cn2)NC1=O [technetium-99m labelled]", "test system": "C57 mouse, B16/F1 melanoma, stomach", "setting": "intravenous, 4 h", "measurement": "uptake", "value": "0.73 ± 0.21 %ID/g"}
{"SMILES": "CSCC[C@H](NC(=O)[C@H](CC(C)C)NC(=O)[C@H](Cc1c[nH]cn1)NC(=O)CNC(=O)[C@@H](NC(=O)[C@H](C)NC(=O)[C@H](Cc1c[nH]c2ccccc12)NC(=O)[C@H](CCC(N)=O)NC(=O)CCCCCNC(=O)CNC(=O)CNC(=O)CNC(=O)CSC(C)=O)C(C)C)C(N)=O [technetium-99m labelled]", "test system": "nude mouse, PC-3 xenograft, heart", "setting": "90 min, added: excess unlabelled conjugate", "measurement": "tissue uptake", "value": "0.09 ± 0.02 %ID/g"}
{"SMILES": "N=C(N)NCCC[C@@H]1NC(=O)[C@H](CCCCNC(=O)CC[C@H](NC(=O)CCOCCOCCOCCOCCNC(=O)CC[C@H](NC(=O)CN2CCN(CC(=O)O)CCN(CC(=O)O)CCN(CC(=O)O)CC2)C(=O)NCCOCCOCCOCCOCCC(=O)N[C@@H](CCC(=O)NCCCC[C@@H]2NC(=O)[C@@H](Cc3ccccc3)NC(=O)[C@H](CC(=O)O)NC(=O)CNC(=O)[C@H](CCCNC(=N)N)NC2=O)C(=O)NCCCC[C@@H]2NC(=O)[C@@H](Cc3ccccc3)NC(=O)[C@H](CC(=O)O)NC(=O)CNC(=O)[C@H](CCCNC(=N)N)NC2=O)C(=O)NCCCC[C@@H]2NC(=O)[C@@H](Cc3ccccc3)NC(=O)[C@H](CC(=O)O)NC(=O)CNC(=O)[C@H](CCCNC(=N)N)NC2=O)NC(=O)[C@@H](Cc2ccccc2)NC(=O)[C@H](CC(=O)O)NC(=O)CNC1=O [indium-111 labelled]", "test system": "female athymic nude mice, bone", "setting": "intravenous, 3 µCi, 1 h, U-87 MG glioma xenograft", "measurement": "tissue uptake", "value": "1.83 ± 0.7 %ID/g"}
{"SMILES": "N=C(N)NCCC[C@@H]1NC(=O)[C@H](CCCCNC(=O)CNC(=O)CNC(=O)CNC(=O)CC[C@H](NC(=O)c2ccc(NN=Cc3ccccc3S(=O)(=O)O)nc2)C(=O)NCC(=O)NCC(=O)NCC(=O)NCCCC[C@@H]2NC(=O)[C@@H](Cc3ccccc3)NC(=O)[C@H](CC(=O)O)NC(=O)CNC(=O)[C@H](CCCNC(=N)N)NC2=O)NC(=O)[C@@H](Cc2ccccc2)NC(=O)[C@H](CC(=O)O)NC(=O)CNC1=O [technetium-99m labelled]", "test system": "athymic nu/nu mouse, female, U-87 MG glioma xenograft", "setting": "intravenous, 120 min", "scale": "baseline: tumour over liver", "measurement": "tumour to tissue ratio", "value": "2.39 ± 0.5"}
{"SMILES": "N=C(N)NCCC[C@@H]1NC(=O)[C@H](CCCCNC(=O)c2ccc(CNC34CNCCNCC(NCc5ccc(C(=O)NCCCC[C@@H]6NC(=O)[C@@H](Cc7ccc(O)cc7)NC(=O)[C@H](CC(=O)O)NC(=O)CNC(=O)[C@H](CCCNC(=N)N)NC6=O)cc5)(CNCCNC3)CNCCNC4)cc2)NC(=O)[C@@H](Cc2ccc(O)cc2)NC(=O)[C@H](CC(=O)O)NC(=O)CNC1=O [copper-64 labelled]", "test": "microPET", "test system": "female athymic nude mouse, U-87 MG xenograft, U-87 MG tumour", "setting": "intravenous, 4 h, added: c(RGDyK) 10 mg/kg blocking", "measurement": "tumour uptake", "value": "0.29 ± 0.05 %ID/g"}
{"SMILES": "N=C(N)NCCC[C@@H]1NC(=O)[C@H](CCCCNC(=O)CCOCCOCCOCCOCCNC(=O)CN2CCN(CC(=O)O)CCN(CC(=O)O)CCN(CC(=O)O)CC2)NC(=O)[C@@H](Cc2ccccc2)NC(=O)[C@H](CC(=O)O)NC(=O)CNC1=O [indium-111 labelled]", "test system": "athymic nude mice, female, U-87 MG glioma xenograft, tumour and blood", "setting": "intravenous, 72 h", "scale": "baseline: tumour over blood", "measurement": "tumour to tissue ratio", "value": "40.1 ± 16.4"}
{"SMILES": "N=C(N)NCCC[C@@H]1NC(=O)[C@H](CCCCNC(=O)CCOCCOCCOCCOCCNC(=O)CC[C@H](NC(=O)CCOCCOCCOCCOCCNC(=O)c2ccc(NN)nc2)C(=O)NCCOCCOCCOCCOCCC(=O)NCCCC[C@@H]2NC(=O)[C@@H](Cc3ccccc3)NC(=O)[C@H](CC(=O)O)NC(=O)CNC(=O)[C@H](CCCNC(=N)N)NC2=O)NC(=O)[C@@H](Cc2ccccc2)NC(=O)[C@H](CC(=O)O)NC(=O)CNC1=O [technetium-99m labelled]", "test": "shake-flask octanol/buffer", "setting": "pH 7.4", "measurement": "logP", "value": "-4.35 ± 0.1"}
{"SMILES": "CCCC[C@H](NC(=O)CNC(=O)CNC(=O)CNC(=O)c1ccc(NN)nc1)C(=O)N[C@H]1CC(=O)NCCCC[C@@H](C(N)=O)NC(=O)[C@H](Cc2c[nH]c3ccccc23)NC(=O)[C@H](CCCNC(=N)N)NC(=O)[C@@H](Cc2ccccc2)NC(=O)[C@H](Cc2c[nH]cn2)NC1=O [technetium-99m labelled]", "test system": "C57 mouse, B16/F1 melanoma, skin", "setting": "intravenous, 2 h", "measurement": "uptake", "value": "0.31 ± 0.1 %ID/g"}
{"SMILES": "N=C(N)NCCC[C@@H]1NC(=O)[C@H](CCCCNC(=O)CC[C@H](NC(=O)CCOCCOCCOCCOCCNC(=O)CN2CCN(CC(=O)O)CCN(CC(=O)O)CCN(CC(=O)O)CC2)C(=O)NCCCC[C@@H]2NC(=O)[C@@H](Cc3ccccc3)NC(=O)[C@H](CC(=O)O)NC(=O)CNC(=O)[C@H](CCCNC(=N)N)NC2=O)NC(=O)[C@@H](Cc2ccccc2)NC(=O)[C@H](CC(=O)O)NC(=O)CNC1=O [indium-111 labelled]", "test system": "athymic nude mice, female, U-87 MG glioma xenograft, tumour and blood", "setting": "intravenous, 4 h", "scale": "baseline: tumour over blood", "measurement": "tumour to tissue ratio", "value": "22 ± 2.79"}
{"note": "A few entries again:"}
{"SMILES": "N=C(N)NCCC[C@@H]1NC(=O)[C@H](CCCCNC(=O)CC[C@H](NC(=O)CCOCCOCCOCCOCCNC(=O)CN2CCN(CC(=O)O)CCN(CC(=O)O)CCN(CC(=O)O)CC2)C(=O)NCCCC[C@@H]2NC(=O)[C@@H](Cc3ccccc3)NC(=O)[C@H](CC(=O)O)NC(=O)CNC(=O)[C@H](CCCNC(=N)N)NC2=O)NC(=O)[C@@H](Cc2ccccc2)NC(=O)[C@H](CC(=O)O)NC(=O)CNC1=O [indium-111 labelled]", "test system": "athymic nude mice, female, U-87 MG glioma xenograft, tumour and blood", "setting": "intravenous, 4 h", "scale": "baseline: tumour over blood", "measurement": "tumour to tissue ratio", "value": "22 ± 2.79"}
